Results pooled from the literature.
Each line is one published result; not all experiments were run side by side. Values joined by “and” are separate records of one study, mostly repeats; a detail may differ. ± marks the error that the study gave.
lasR: Transcriptional activator protein LasR (lasR, Pseudomonas aeruginosa, UniProt P25084)
pafA K162A: Alkaline phosphatase PafA (pafA, Elizabethkingia meningoseptica, UniProt Q9KJX5, K162A)
KCNQ3/KCNQ2: Voltage-gated potassium channel, KQT; KCNQ2(Kv7.2)/KCNQ3(Kv7.3) (KCNQ3/KCNQ2, Homo sapiens, UniProt O43525+O43526)
KLRK1 with ULBP6: NKG2-D type II integral membrane protein, with ULBP6 (KLRK1, Homo sapiens, UniProt P26718)

Compound	target	test	system	conditions	how to read	endpoint	result
C=C(CC)C(=O)c1ccc(OCC(=O)NCCNC(=O)COc2ccc(C(=O)C(=C)CC)c(Cl)c2Cl)c(Cl)c1Cl	Glutathione S-transferase Mu 2 (Homo sapiens, UniProt P28161)	enzyme activity, inhibitor	–	no preincubation	reference: GSTA IC50 over GSTM IC50	selectivity ratio	~15 fold
CC(C)C[C@H](NC(=O)[C@@H](N)Cc1ccccc1)C(=O)O	Amyloid-beta precursor protein, Aβ40 (APP, Homo sapiens, UniProt P05067)	binding, ion mobility MS, item: Aβ dimer	–	–	–	dimer bound	69 ± 4.5%
C[n+]1ccc(C(=O)NC2CCC3(O)C4Cc5ccc(O)c6c5C3(CC[N+]4(C)CC3CC3)C2O6)cc1 (stereo not shown)	Oprd1 (Mus musculus, UniProt P32300)	–	–	–	reference: Ki delta over Ki mu	selectivity ratio	349
CCCCCc1cn(CC(=O)N[C@H]2CCOC2=O)nn1	lasR	reporter gene, agonist	Escherichia coli, DH5α pJN105L/pSC11	100 µM	reference: OdDHL at same concentration	activation	17%
O=[N+]([O-])c1ccc(OP(=O)(O)O)cc1	pafA K162A	substrate	–	pH 8.0	–	kcat	0.03 s^–1
COc1ccc(NC(=O)Cn2c(=O)c3ccccc3n(CC(=O)Nc3cc([125I])c(OC)cc3OC)c2=O)cc1	Sphingosine 1-phosphate receptor 2 (Rattus norvegicus, UniProt P47752)	in vitro autoradiography	Sprague-Dawley rat, STZ-induced diabetes, kidney sections	dose not given, 12 weeks	reference: control rats	binding increase	44% and ~44%
C=C(NC(=O)C(=C)NC(=O)c1csc(C2=NC3c4csc(n4)C4NC(=O)c5csc(n5)C(C(C)(O)C(C)O)NC(=O)C5CSC(=N5)C(=CC)NC(=O)C(C(C)O)NC(=O)c5csc(n5)C3(CC2)NC(=O)C(C)NC(=O)C(=C)NC(=O)C(C(C)C)NC2C=Cc3c(C(C)O)cc(nc3C2O)C(=O)OC4C)n1)C(N)=O (stereo not shown)	PSMB5 (Homo sapiens, UniProt P28074)	chymotrypsin-like activity, inhibitor	–	together with: Suc-LLVY-AMC	reference: thiostrepton A	IC50 fold change	≤ 6 fold
CC(=O)NC(Cc1ccc(Br)c(Cl)c1)C(=O)N[C@@H](C)C(=O)N1CCC[C@H]1C(=O)N1CCC[C@H]1C(=O)N[C@@H](CCC(=O)O)C(=O)N[C@@H](Cc1c[nH]cn1)C(=O)N[C@@H](CO)C(=O)N[C@H](C(=O)N[C@@H](C)C(N)=O)[C@@H](C)OP(=O)(O)O (stereo partly shown)	CSNK1A1 (Homo sapiens, UniProt P48729)	–	–	10 µM	–	inhibition	0.94 ± 0.05%
CCN(Cc1ccccc1)C(=O)CCc1nc(CN2CCN(C(=O)Cc3ccc(OC)c(OC)c3)CC2)no1	KCNQ3/KCNQ2	potassium current, whole-cell patch clamp	CHO, stable	10 µM	–	activation V1/2	-53.5 mV
CCCCC/C=C\C/C=C\C/C=C\C/C=C\CCCC(=O)NC(CO)C(=O)O (stereo in doubt)	KCNQ3/KCNQ2	two-electrode voltage clamp	Xenopus oocytes	10 µM, at -100 mV, 100 mM K+	reference: compound over control	deactivation time constant ratio	1.45 ± 0.11
CC(=O)N[C@@H](CC(C)C)C(=O)N[C@@H](CCC(=O)O)C(=O)N[C@@H](Cc1c[nH]cn1)C(=O)N[C@@H](CC(=O)O)C(=O)Nc1ccc2c(C)cc(=O)oc2c1	Caspase-6 (CASP6, Homo sapiens, UniProt P55212)	substrate cleavage, substrate, fluorogenic AMC release	–	enzyme 0.25 activity units/µL	–	Vmax	792 ± 16.7 RFU/min
CN(C)C(=O)[C@@H](NC(=O)c1cc(-c2ccnn2C)ccc1-c1ccc(C(F)(F)F)cc1)c1cccc(C(F)(F)F)c1	KLRK1 with ULBP6	ligand binding, inhibitor, TR-FRET	HEK293 expressing NKG2D and DAP10	together with: ULBP6-AF647	reference: positive control	maximum inhibition	101%
C=CC(=O)Nc1cccc(-c2cnc3[nH]cc(C(=O)NC(C)(C)C)c3n2)c1	JAK2 (Homo sapiens, UniProt O60674)	enzyme activity, inhibitor	–	–	reference: JAK3 over JAK2	selectivity ratio	378 fold
Nc1ccc(C(O)(C(F)(F)F)C(F)(F)F)cc1	Amyloid-beta precursor protein, amyloid-beta 1-40 oligomers (APP, Homo sapiens, UniProt P05067)	–	–	200 µM	–	activity	inactive
CO[P@](=O)(Oc1ccccc1)OC1CCCCC1	had (Sphingobium sp. TCM1, UniProt A0A077JBW9)	phenyl ester hydrolysis, substrate	–	–	–	Km	6 ± 2 µM
CCCCCc1cn(-c2cccc(C(=O)N[C@H]3CCOC3=O)c2)nn1	lasR	reporter gene, agonist	Escherichia coli DH5α pJN105L/pSC11	10 µM	reference: OdDHL 100 µM	activation	0%

Compound	target	test	system	conditions	how to read	endpoint	result
CN(C)C(=O)C(NC(=O)c1ccccc1-c1ccc(C(F)(F)F)cc1)c1cccc(C(F)(F)F)c1 (stereo not shown)	NKG2-D type II integral membrane protein, with MICA (KLRK1, Homo sapiens, UniProt P26718)	–	–	–	–	Emax	97%
O=P(O)(O)Oc1ccccc1	pafA K162A	–	Chryseobacterium meningosepticum	pH 8.0	reference: wild type over mutant kcat/KM	relative catalytic efficiency	100000
O=C(O)c1ccccc1-c1c2ccc(=O)c([As]3SCCS3)c-2oc2c([As]3SCCS3)c(O)ccc12	Ptpn11 (Mus musculus, UniProt P35235)	–	–	225 nM, catalytic domain, together with: pNPP	–	kcat	0.6 ± 0.066 s⁻¹
CN(C)C(=O)[C@@H](NC(=O)c1cnccc1-c1ccc(C(F)(F)F)cc1)c1cc(Cl)cc(C(F)(F)F)c1	KLRK1 with ULBP6	ligand binding, inhibitor, TR-FRET	HEK293 expressing NKG2D and DAP10	together with: ULBP6-AF647	reference: positive control	maximum inhibition	102%
CC[C@H](C)[C@H](NC(C)=O)C(=O)N[C@H]1CSSC[C@@H](C(=O)N[C@H](C(N)=O)[C@@H](C)O)NC(=O)[C@H](CCCNC(=N)N)NC(=O)[C@H](Cc2c[nH]cn2)NC(=O)[C@H](C)NC(=O)CNC(=O)[C@H](Cc2c[nH]c3ccccc23)NC(=O)[C@H](CC(=O)O)NC(=O)[C@H](CCC(N)=O)NC(=O)[C@H](Cc2cc3cccc4ccc5cccc2c5c43)NC(=O)[C@H](C(C)C)NC1=O	Complement C3, C3b fragment (Homo sapiens, UniProt P01024)	–	–	pH 7.4	–	koff	0.048 ± 0.012 s⁻¹
CC[C@H](C)[C@@H]1NC(=O)[C@H](Cc2ccc(O)cc2)NC(=O)[C@@H](N)CSSC[C@@H](C(=O)N2CCC[C@H]2C(=O)N2CCC[C@H]2C(=O)NCC(N)=O)NC(=O)[C@H](CC(N)=O)NC(=O)[C@H](CCC(N)=O)NC1=O	Oxytocin receptor (Macaca mulatta, UniProt P56494)	membrane hyperpolarisation	CHO cells	–	–	Emax	1880 RFU
NCC1OC(OC(CO)C2CC(O)C(n3ccc(=O)[nH]c3=O)O2)C(O)C1O (stereo not shown)	mraY (Aquifex aeolicus, UniProt O66465)	isothermal titration calorimetry	–	concentration not given, wild type, together with: Mg2+	–	binding enthalpy	-15 ± 1.5 kcal/mol
C#CCNC(=O)c1ccc([P+](CCCC(=O)N[C@@H](CCCCNC(=O)c2cncc(OS(=O)(=O)F)c2)C(=O)N[C@@H](CCCNC(=N)N)C(=O)NC2CCC2)(c2ccccc2)c2ccccc2)cc1	SIRT5 (Homo sapiens, UniProt Q9NXA8)	enzyme activity, inhibitor, jump-dilution	–	concentration not given, 16 h preincubation, 100-fold dilution	reference: DMSO	remaining activity	~10%
CCNCCN(C)c1ccc(Nc2cc(NC3CC3)n3ncc(C#N)c3n2)cc1NC(=O)CC	CSNK2A1 (Homo sapiens, UniProt P68400)	binding, NanoBRET	–	–	reference: CSNK2A1 over CSNK2A2	selectivity ratio	6 to 8 fold
CC(C)P(=S)(NP(=S)(C(C)C)C(C)C)C(C)C	Alpha-amylase (Bacillus subtilis, UniProt P00691)	fluorescence quenching	–	concentration not given, pH 6.8, 304 K	–	ΔG of binding	-4.12 kcal/mol
C[C@@]1(O)CC[C@H]2[C@H](CC[C@@H]3[C@@H]2CC[C@]2(C)[C@@H](C(=O)Cn4cccn4)CC[C@@H]32)C1	Membrane progestin receptor delta (Paqr6, Mus musculus, UniProt Q6TCG5)	pPKA/PKA immunoblot	MDA-MB-231 expressing Paqr6-GFP	30 nM, 20 min	reference: control	PKA activation	93.1 ± 2.69%
COP(=O)(O)Oc1ccc([N+](=O)[O-])cc1	pafA K162A	–	Chryseobacterium meningosepticum	pH 8.0	reference: wild type over mutant kcat/KM	relative catalytic efficiency	1.3
CC[C@H](C)[C@H](NC(=O)[C@H](Cc1c[nH]cn1)NC(=O)[C@H](CCCCNC(=O)[C@@H](NC(=O)[C@H](CCCCN)NC(=O)[C@H](Cc1ccccc1)NC(=O)[C@H](CCCCNC(=O)[C@H](CC(C)C)NC(=O)[C@@H]1CCCN1C(=O)[C@H](CCCCN)NC(=O)CCS[C@@H]1O[C@H](CO)[C@H](O)[C@H](O)[C@H]1O)NC(=O)[C@H](CC(C)C)NC(=O)[C@@H]1CCCN1C(=O)[C@H](CCCCN)NC(=O)CCS[C@@H]1O[C@H](CO)[C@H](O)[C@H](O)[C@H]1O)[C@@H](C)CC)NC(=O)[C@@H](NC(=O)[C@H](CCCCN)NC(=O)[C@H](Cc1ccccc1)NC(=O)[C@H](CCCCNC(=O)[C@H](CC(C)C)NC(=O)[C@@H]1CCCN1C(=O)[C@H](CCCCN)NC(=O)CCS[C@@H]1O[C@H](CO)[C@H](O)[C@H](O)[C@H]1O)NC(=O)[C@H](CC(C)C)NC(=O)[C@@H]1CCCN1C(=O)[C@H](CCCCN)NC(=O)CCS[C@@H]1O[C@H](CO)[C@H](O)[C@H](O)[C@H]1O)[C@@H](C)CC)C(N)=O	lecA (Pseudomonas aeruginosa, UniProt Q05097)	ITC	–	concentration not given, pH 7.5, 25 °C	–	binding stoichiometry	4.3 ± 0.2
Cc1cc(Nc2cc(CN(C)C)cc(NC(=O)c3cc(CN(C)C)cc(Nc4ccnc5ccccc45)c3)c2)nc(N)n1	DNA polymerase eta (POLH, Homo sapiens, UniProt Q9Y253)	nucleotide incorporation	–	concentration not given	–	kcat	0.04 s⁻¹
Cn1cc(-c2cccc(CN3CCC4(CC3)COc3c4ccc4c3CN([C@H]3CCC(=O)NC3=O)C4=O)c2)cn1	Ikzf2/Crbn (Mus musculus, UniProt P81183+Q8C7D2, I391V)	–	mouse Crbn I391V, spleen	oral, 10 mg/kg single dose, 6 h	–	degradation	70%

A few entries again:
Compound	target	test	system	conditions	how to read	endpoint	result
O=C(O)c1ccccc1-c1c2ccc(=O)c([As]3SCCS3)c-2oc2c([As]3SCCS3)c(O)ccc12	Ptpn11 (Mus musculus, UniProt P35235)	–	–	225 nM, catalytic domain, together with: pNPP	–	kcat	0.6 ± 0.066 s⁻¹
Cc1cc(Nc2cc(CN(C)C)cc(NC(=O)c3cc(CN(C)C)cc(Nc4ccnc5ccccc45)c3)c2)nc(N)n1	DNA polymerase eta (POLH, Homo sapiens, UniProt Q9Y253)	nucleotide incorporation	–	concentration not given	–	kcat	0.04 s⁻¹
CC[C@H](C)[C@@H]1NC(=O)[C@H](Cc2ccc(O)cc2)NC(=O)[C@@H](N)CSSC[C@@H](C(=O)N2CCC[C@H]2C(=O)N2CCC[C@H]2C(=O)NCC(N)=O)NC(=O)[C@H](CC(N)=O)NC(=O)[C@H](CCC(N)=O)NC1=O	Oxytocin receptor (Macaca mulatta, UniProt P56494)	membrane hyperpolarisation	CHO cells	–	–	Emax	1880 RFU
Cn1cc(-c2cccc(CN3CCC4(CC3)COc3c4ccc4c3CN([C@H]3CCC(=O)NC3=O)C4=O)c2)cn1	Ikzf2/Crbn (Mus musculus, UniProt P81183+Q8C7D2, I391V)	–	mouse Crbn I391V, spleen	oral, 10 mg/kg single dose, 6 h	–	degradation	70%
CC(C)C[C@H](NC(=O)[C@@H](N)Cc1ccccc1)C(=O)O	Amyloid-beta precursor protein, Aβ40 (APP, Homo sapiens, UniProt P05067)	binding, ion mobility MS, item: Aβ dimer	–	–	–	dimer bound	69 ± 4.5%
